Measurements pooled from the literature.
Numbered parts are unrelated; each lists some results of a single study.

Study 1 — method: protein binding microarray; molecule type: double-stranded DNA, one strand shown; matrix: in vitro; concentration: not given; relative to: not given; reading: higher = stronger binding; quantity: E-score
Target: Histone acetyltransferase KAT6A, winged helix 1, GST fusion (KAT6A, Homo sapiens, UniProt Q92794, residues 1-85)
Setting: 8-mer, flanks averaged, mean of 2 arrays, mostly near background
Residues (chain): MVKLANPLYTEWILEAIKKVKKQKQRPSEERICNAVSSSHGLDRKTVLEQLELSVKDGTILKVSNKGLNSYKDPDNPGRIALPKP
CTCGGTGA: -0.0206
AAGTTTAT: 0.00659
ACTAAGGA: -0.153
CTGTTATA: -0.0537
GGTACATA: 0.042
AGTCAAAT: -0.291
GTCATCAC: -0.062
AAAGTACG: 0.00417
CTGTCTAC: -0.17
ATTCGTAG: -0.075
GGGGCTCA: 0.0281
AGTGAGGA: -0.22
AGGGTGCG: 0.209
GAAATTAA: -0.101
TATCCGCA: 0.176
AAGTCACC: -0.12
GACGATGA: 0.0604
CCAGGAGA: -0.285
ACAGCCCA: -0.173
GGTCACAC: 0.00856

Study 2 — method: RNA Bind-n-Seq; molecule type: RNA; matrix: in vitro; concentration: 200 nM; setting: whole 134-nt RNA, ends assumed; added: 150 mM LiCl; relative to: input library; reading: higher = stronger binding; quantity: log2 enrichment; library: 7-deaza-guanosine replaces G
Target: Ras GTPase-activating protein-binding protein 1, full length (G3BP1, Homo sapiens, UniProt Q13283)
Sequence of UniProt Q13283 (whole entry, looked up): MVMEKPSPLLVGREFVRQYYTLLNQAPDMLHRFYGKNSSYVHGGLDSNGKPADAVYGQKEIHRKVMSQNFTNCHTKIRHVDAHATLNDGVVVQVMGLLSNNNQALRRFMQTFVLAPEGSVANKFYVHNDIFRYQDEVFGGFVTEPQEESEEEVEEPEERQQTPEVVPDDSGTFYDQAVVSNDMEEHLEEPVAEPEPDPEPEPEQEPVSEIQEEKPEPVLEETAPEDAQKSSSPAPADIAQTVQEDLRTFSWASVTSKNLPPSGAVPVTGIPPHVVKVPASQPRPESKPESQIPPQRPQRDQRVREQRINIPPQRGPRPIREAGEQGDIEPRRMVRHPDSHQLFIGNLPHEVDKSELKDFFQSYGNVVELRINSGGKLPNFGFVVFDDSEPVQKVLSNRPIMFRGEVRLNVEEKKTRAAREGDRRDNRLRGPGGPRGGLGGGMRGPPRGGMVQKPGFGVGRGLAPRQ
All sequences stand within: GGGAGUUCUACAGUCCGACGAUC … UGGAAUUCUCGGGUGUCAAGG
UAACUUUAGAGGAGGAUCUGAUGGAUAUGGCAGUGGACGUGGAUUUGGGGAUGGCUAUAAUGGGUAUGGAGGAGGCCCUGGAGGUGGCAA: -0.00853
UCUUUAUUUGAGCCAGUCUUGCAAGGUUAACUUCUCACUGGGCCUAGUGUGGUGCCCAGGUUUUUGCCUUGCUUCACUUCUGUCUCUACA: -0.996
UCCUGUGCUACACAUCGUAUGUACCGAAUCAAACCCCCCCAAACCCCCAAAUUUUUAAAAAAGUAUUAUGUUACGCCGUUCGGAUCUGCA: 0.577
AAGUCCUGUGCUACACAUCGUAUGUACCGAAUCGGGGUGGGGAGGGGUUUUUGGGGAAAGUAUUAUGUUACGCCGUUCGGAUCUGCACUU: 0.0908
GUCCUGUGCUACACAUCGUAUGUACCGAAUCAAAUUUAAACCCCCAAACCCCCCCAAAAAAGUAUUAUGUUACGCCGUUCGGAUCUGCAC: 0.382
UGGCCCUGGUGGCAUGCGGGGAGGAAGAGGUGGCCUCAUGGAUCGUGGUGGUCCCGGUGGAAUAUUCAGAGGUGGCCGUGGUGGAGACAG: 0.466
UAACUUUAGAGGAGGAUCUGAUGGAUAUGGCAGUGGACGUGGAUUUGGGGAUGGCUAUAACGGGUAUGGAGGAGGACCUGGAGGUGGCAA: -0.359
AGUCCUGUGCUACACAUCGUAUGUACCGAAUCGGGGCCCCGGGGCCCCGGGCCCCGGAAAGUAUUAUGUUACGCCGUUCGGAUCUGCACU: 0.727
CAAGUCCUGUGCUACACAUCGUAUGUACCGAAUCGGGGUUUUGGUUUUGGUUUUGGAAAGUAUUAUGUUACGCCGUUCGGAUCUGCACUU: -1.36
ACCAUGCAGGUGGGCAUCUUUGGGAAGUGGGGCAAGGGGGGGAGAGGGAGGGGGGUAACACUUUGGGAACAGGUGGUCCCAGGUCGUUUC: 0.251
GAGGAGCUGCUGCUGGAGCCCGAGCCGGAGCCCGAGCCCGAAGAGGAGCCGCCCCGGCCCCGCGCCCCCCCGGGAGCUCCGGGCCCUGGG: -0.115

Study 3 — method: universal PBM; molecule type: double-stranded DNA, one strand shown; matrix: in vitro; concentration: 600 nM; reading: higher = stronger binding; quantity: E-score
Target: Sal-like protein 4, full length isoform A (SALL4, Homo sapiens, UniProt Q9UJQ4, residues 1-1053)
Sequence of UniProt Q9UJQ4 (whole entry, looked up): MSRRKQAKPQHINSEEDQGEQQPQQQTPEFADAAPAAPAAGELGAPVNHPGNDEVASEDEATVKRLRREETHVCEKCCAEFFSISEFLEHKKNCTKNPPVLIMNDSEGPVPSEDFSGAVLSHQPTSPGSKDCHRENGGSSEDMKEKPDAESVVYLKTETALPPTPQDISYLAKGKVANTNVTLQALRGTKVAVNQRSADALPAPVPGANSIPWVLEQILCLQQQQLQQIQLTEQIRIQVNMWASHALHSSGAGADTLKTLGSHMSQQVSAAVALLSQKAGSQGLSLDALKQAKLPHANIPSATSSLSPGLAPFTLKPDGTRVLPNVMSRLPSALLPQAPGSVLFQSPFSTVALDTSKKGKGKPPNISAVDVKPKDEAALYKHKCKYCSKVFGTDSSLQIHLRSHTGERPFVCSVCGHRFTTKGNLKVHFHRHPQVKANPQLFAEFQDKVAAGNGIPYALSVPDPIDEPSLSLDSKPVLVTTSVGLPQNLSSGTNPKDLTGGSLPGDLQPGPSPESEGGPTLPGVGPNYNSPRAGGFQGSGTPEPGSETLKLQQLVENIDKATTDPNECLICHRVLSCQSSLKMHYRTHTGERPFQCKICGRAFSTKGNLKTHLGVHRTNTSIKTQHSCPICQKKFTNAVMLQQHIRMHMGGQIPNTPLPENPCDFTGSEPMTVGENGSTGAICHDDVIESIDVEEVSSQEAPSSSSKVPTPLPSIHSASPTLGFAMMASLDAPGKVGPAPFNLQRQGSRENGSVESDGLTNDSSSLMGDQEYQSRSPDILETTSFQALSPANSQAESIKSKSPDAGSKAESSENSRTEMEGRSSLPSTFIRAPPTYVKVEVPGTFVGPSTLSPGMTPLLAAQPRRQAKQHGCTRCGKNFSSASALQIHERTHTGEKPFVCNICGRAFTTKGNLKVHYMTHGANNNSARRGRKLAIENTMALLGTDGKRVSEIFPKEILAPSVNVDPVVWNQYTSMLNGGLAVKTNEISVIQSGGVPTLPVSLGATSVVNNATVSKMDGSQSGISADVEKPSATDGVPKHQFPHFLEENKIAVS
Setting: 8-mer, flanks averaged, mean of replicates
CAGTGGCA: -0.106
CCAGCGGG: -0.222
TAAAAGGA: 0.19
CCTAGTGA: -0.258
CTATATCC: 0.137
TGCAGTAA: 0.0738
ACAGGAAA: 0.192
ACGCGCTC: -0.25
CCGTACGC: -0.201
CGACTTGA: -0.00328
ACCCAATA: 0.0748
GCCTTACC: -0.141
TCACAGCA: 0.000475
TATGCTAA: 0.253
AGAACGCG: -0.139
GTAGATTA: 0.286
ATCTACTA: 0.323
AACGTCTG: -0.177
CCCGCCAA: -0.112
TGAATTCA: 0.121

Study 4 — method: aptamer microarray, sandwich; molecule type: DNA with 2'F-ANA; matrix: in vitro; concentration: 200 nM; added: Cy3 exosite-II aptamer, 400 nM; reading: higher = stronger binding; quantity: mean fluorescence intensity; oligonucleotide: GGTTGGTGTGGTTGG
Target: Prothrombin, mature alpha-thrombin (F2, Homo sapiens, UniProt P00734)
Setting: whole 15-mer aptamer, many near background
2'F-ANA at 2 3 8 9 10 13: 364 a.u.
2'F-ANA at 2 7 8 10 15: 224 a.u.
2'F-ANA at 1 2 3 5 6 9 10: 46.2 a.u.
2'F-ANA at 2 3 4 5 7 10 14: 47.9 a.u.
2'F-ANA at 1 2 3 4 5 7 10 11 14: 52.5 a.u.
2'F-ANA at 1 5 6 10 11 13: 59.7 a.u.
2'F-ANA at 2 4 5 7 8 9 10 11 15: 58.1 a.u.
2'F-ANA at 1 2 5 6 8 11 12 13: 75.8 a.u.
2'F-ANA at 2 4 5 8 11 13 14: 45.1 a.u.
2'F-ANA at 3 4 5 6 10 11 13: 49 a.u.
2'F-ANA at 1 2 3 4 5 8 9 15: 67.8 a.u.
2'F-ANA at 3 4 5 6 8 9 13: 63.5 a.u.
2'F-ANA at 1 3 4 7 9 13 14 15: 78.2 a.u.
2'F-ANA at 1 2 3 4 6 7 8 10 12 14: 56.2 a.u.
2'F-ANA at 1 5 7 9 10 11 12 13 14 15: 46.8 a.u.
2'F-ANA at 1 4 8 9 11 13: 101 a.u.
2'F-ANA at 1 5 7 8 9 11 12 13: 107 a.u.
2'F-ANA at 1 2 5 11: 55.9 a.u.
2'F-ANA at 1 4 5 10 11 12 13 14: 79.5 a.u.
2'F-ANA at 1 2 3 4 5 6 9 11 12: 143 a.u.
2'F-ANA at 2 7 8 10 12 15: 206 a.u.
2'F-ANA at 1 2 3 4 6 8 10 11 12 14: 69.1 a.u.
2'F-ANA at 2 3 9 11 12 14 15: 432 a.u.
2'F-ANA at 1 4 6 10 15: 50.5 a.u.
2'F-ANA at 3 8 9 10 11 13 14 15: 447 a.u.

Study 5 — method: RNA Bind-n-Seq; molecule type: RNA; matrix: in vitro; concentration: 365 nM; relative to: no-protein control; reading: higher = stronger binding; quantity: RBNS enrichment (R)
Target: RNA binding protein fox-1 homolog 2, RRM domain, GST-SBP tag (RBFOX2, Homo sapiens, UniProt O43251-10, residues 100-194)
Setting: natural RNA segment, single round, ends assumed
All sequences stand within: GGGAGUUCUACAGUCCGACGAUC … UGGAAUUCUCGGGUGCCAA
Residues (chain): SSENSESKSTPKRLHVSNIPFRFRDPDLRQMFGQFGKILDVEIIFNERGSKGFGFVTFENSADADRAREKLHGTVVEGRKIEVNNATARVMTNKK
UCCUUUAAUUUUUUUUUAACAGAAGGGUAUCAGAGUGGAGGACCUAGAUUACGCUACCUGUGUUUGAAAAUAUUGCGCUUUGCCUAACCUUCGGUGGAAUGUAUUGUUUC: 0.853
CACCCGUCCCCUUCACGCCCUUGACACUAAGGAGUGGGGGGCCCUGGACUGCCCCUUCCUCCCCCAUCGCCCGCCCCCAGAACCCCUGAUGCUGGUUAGGAACCGCUCAC: 0.478
UUGAAACUCUAAUUGCAAUAACUUCAGUCUUUCUCCAUCUUCAGCUGUAUCCACAAAAUCUCCACUGCUGUCGAGUGUCCUUUAGCUGUGGACCAAAGGCAACCCCUGCA: 2.28
UAUUAUGAGAAUGUUUUACAUUUAAACUGGUUUAGCACCUUUUAAGUUUAAAGCCCAUAGCUUCUUAUUACUAGUGACCUAGGGAAUUGUUAUUAACAUUAAGAGAUAUA: 0.491
AGCCGUCCCCGUCAAGGUGUGGGGCUCCUUUCAUGCAUUUGCUUCUUUUCCAGAGUGUGGAUUUGAACUACUUCCCCCUGCAAAGGGCCGCGUGCACCCUGCCGAGCUGC: 1.01
GGUUCCCCAAAUCACUUCAAUCUCUUCGUCACAUAUUGGGGUGGUACCAAGGAAGGUGACCAGUAUUGUUUACAGAUGAUUUUCUAAGGAAAAGUUGAGGGGGACUUAGG: 0.592
CUAACUUGGAUUGAAAUGAGUGAGGCCAACUCACAUUCCCAUCAAACACUCUUCCAAGGAAAAGCAGAAGUAAUAAUUGGAGGUAAAGUUUCCUUAGAGAAAAUAAUUUU: 0.195
UCAGACGUGGGACUGCAGAGUCUGUUUGGAUUUGACACGGGGAGUCCUUGCUGACCUCCUGUCUCCCUAGAGCACAAACAGGAGGGGGCAAGCCCCUUGAAGGUUUGGAU: 0.349
UAUUCAUGUCUCUACCCACUAUGCACAGAUUAAACUUCACCUACAAACUCCUUAAUAUGAUCUGUGGAGAAUGUACACAGUUUAAACACAUCAAUAAAUACUUUAACUUC: 2.02
UCAUUGAAAUAAAGCUACAGCACAAGACAACUUACAGAUUGUGAAACAGCGAGAAUGAAGAGCUACAUUCUUGCAGACGAGCUGUAGGUCGUACACGAAUGUCUAAAGAG: 0.506
AAACAGAACACUGGAUUCUUCCUGUUAACUUCACCGAGAGUAGCUACAAAGGUGGACUUAGAGCCAAGCACAAUCUCACAACGAUUCCAGAAUUCCCUAGAGACCUCUUG: 0.262
UGUGUGGGAGACUGUCAUUUGGGAAUUUGAUUUUUUUUUUUCUGUACGAAUUUAAAAAAAAAAGAAAAAAAAGAAACUUCAUUGAAUUACCUUGCAGUGGUGUUGACUCU: 0.982

Excerpt of the above (study 3):
TAAAAGGA: 0.19
CCTAGTGA: -0.258
CTATATCC: 0.137
TGCAGTAA: 0.0738
ACAGGAAA: 0.192
ACGCGCTC: -0.25
CCGTACGC: -0.201
CGACTTGA: -0.00328
ACCCAATA: 0.0748
GCCTTACC: -0.141
TCACAGCA: 0.000475
TATGCTAA: 0.253
AGAACGCG: -0.139
